Measurements gathered from unrelated publications.
Parts stem from different laboratories: compare values within a part only. Positions count from the first letter of the parent shown.

Series 1
Target: Prothrombin, mature alpha-thrombin (F2, Homo sapiens, UniProt P00734)
Method: aptamer microarray, sandwich
Molecule type: DNA with 2'F-ANA
Sample: in vitro
Concentration: 200 nM
Notes: whole 15-mer aptamer, many near background
Added: Cy3 exosite-II aptamer, 400 nM
Direction: higher = stronger binding
Strand: GGTTGGTGTGGTTGG
Modification | mean fluorescence intensity [a.u.]
2'F-ANA at 8 12 15 | 873
2'F-ANA at 4 7 8 12 | 786
2'F-ANA at 5 6 7 10 11 12 13 | 48.9
2'F-ANA at 1 2 3 4 5 6 7 10 12 14 | 52.7
2'F-ANA at 1 4 6 8 9 11 12 13 15 | 213
2'F-ANA at 1 7 8 9 12 15 | 488
2'F-ANA at 1 3 4 7 9 12 | 415
2'F-ANA at 1 2 3 6 8 10 12 13 | 74.3
2'F-ANA at 3 5 8 9 15 | 145
2'F-ANA at 1 4 7 10 11 12 13 14 | 49.1
2'F-ANA at 1 3 5 10 12 13 14 15 | 44.4
2'F-ANA at 1 2 3 4 5 6 7 12 | 121
2'F-ANA at 2 6 7 8 9 10 12 14 | 99.9
2'F-ANA at 1 2 7 8 10 11 12 13 14 15 | 58.5
2'F-ANA at 1 2 3 4 7 11 13 14 | 62.2
2'F-ANA at 2 3 8 10 12 13 15 | 404
2'F-ANA at 2 3 4 5 7 9 11 12 13 | 222
2'F-ANA at 1 2 3 6 7 9 11 12 13 | 224

Series 2
Target: CCND1, cyclin fold, Cln2 fusion (human)
Method: yeast growth competition, sequencing
Sample: yeast
Notes: weak parent motif
Baseline: not given
Direction: higher = stronger binding
Starting sequence: MICAL3 docking peptide (human); LQLRRQLSFSEDS; partner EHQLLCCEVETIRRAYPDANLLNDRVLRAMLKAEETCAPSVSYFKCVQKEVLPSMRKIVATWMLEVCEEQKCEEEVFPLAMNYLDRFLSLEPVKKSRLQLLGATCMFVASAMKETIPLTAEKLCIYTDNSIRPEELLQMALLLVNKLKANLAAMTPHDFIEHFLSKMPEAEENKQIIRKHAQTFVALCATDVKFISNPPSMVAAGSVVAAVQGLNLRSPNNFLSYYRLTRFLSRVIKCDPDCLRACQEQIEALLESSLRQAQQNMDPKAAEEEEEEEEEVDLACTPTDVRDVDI
Substitution | normalised enrichment score
LQLRRELSFSEDS [Q6E] | 0.462
LQLVRQLSFSEDS [R4V] | 0.24
LQLRSQLSFSEDS [R5S] | -0.47
LQLRRQLSFTEDS [S10T] | 0.492
LQLRRTLSFSEDS [Q6T] | 0.245
LQLRRQLSDSEDS [F9D] | -0.133
LQLRRQLSFSIDS [E11I] | -0.354
LILRRQLSFSEDS [Q2I] | 0.0619
LQLRRQLSPSEDS [F9P] | 0.189
LQLRRQLSFSEKS [D12K] | 0.0344
LQLSRQLSFSEDS [R4S] | 0.677
LQLRRRLSFSEDS [Q6R] | 2.22
LQLRWQLSFSEDS [R5W] | 0.00427
LQLRRQLSFDEDS [S10D] | 0.653
LQLRRQLSNSEDS [F9N] | -0.135
LQLRRQLSFSWDS [E11W] | 0.113
LQLRRQFSFSEDS [L7F] | -0.179
LQLRRKLSFSEDS [Q6K] | 1.96
LQVRRQLSFSEDS [L3V] | 1.53

Series 3
Target: Histone acetyltransferase KAT6A, winged helix 1, GST fusion (KAT6A, Homo sapiens, UniProt Q92794, residues 1-85)
Method: protein binding microarray
Molecule type: double-stranded DNA, one strand shown
Sample: in vitro
Concentration: not given
Notes: 8-mer, flanks averaged, mean of 2 arrays, mostly near background
Baseline: not given
Direction: higher = stronger binding
Construct (chain): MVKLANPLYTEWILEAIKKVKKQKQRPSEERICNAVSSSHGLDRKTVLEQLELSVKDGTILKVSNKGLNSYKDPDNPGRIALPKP
Strand | E-score
ACTCGCGC | 0.401
GTTCATAA | -0.147
AGCCTCAT | -0.162
ACTCTCTC | -0.145
AAATAATA | -0.142
CATACGAC | -0.106
CGCCAATC | -0.0234
GGCTCATA | 0.0086
CCCGGTTA | 0.299
CCCACTCA | -0.229
AAGACAAA | -0.0907
CCTGGTGA | -0.202
GAAGTGAA | -0.0711
CGAGTCTC | -0.0774
ACTCCCCG | 0.271
AGCGTGGG | 0.0423
ACCAACGC | -0.0284
ACTTAGGA | -0.213
GACGCCCC | 0.167
ACAACTTG | -0.197
CAATGAAG | -0.197
AGCATTAC | -0.112
CATGCCAA | -0.279
GGATCCTA | -0.0545
AGTAAGCG | 0.0866

Series 4
Target: ABI1, truncated, D143A, DHFR fusion (Arabidopsis thaliana)
Method: DHFR PCA, deep sequencing
Sample: yeast
Notes: methotrexate growth selection, single substitutions
Added: (+)-ABA 17 µM
Baseline: wild-type fitted maximum
Direction: higher = stronger binding
Starting sequence: PYL1, truncated, DHFR fusion (Arabidopsis thaliana); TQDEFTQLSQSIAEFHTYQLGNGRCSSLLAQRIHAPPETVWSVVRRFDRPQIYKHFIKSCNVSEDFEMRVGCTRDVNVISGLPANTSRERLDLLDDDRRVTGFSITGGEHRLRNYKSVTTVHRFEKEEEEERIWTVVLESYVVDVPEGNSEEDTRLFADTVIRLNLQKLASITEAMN; partner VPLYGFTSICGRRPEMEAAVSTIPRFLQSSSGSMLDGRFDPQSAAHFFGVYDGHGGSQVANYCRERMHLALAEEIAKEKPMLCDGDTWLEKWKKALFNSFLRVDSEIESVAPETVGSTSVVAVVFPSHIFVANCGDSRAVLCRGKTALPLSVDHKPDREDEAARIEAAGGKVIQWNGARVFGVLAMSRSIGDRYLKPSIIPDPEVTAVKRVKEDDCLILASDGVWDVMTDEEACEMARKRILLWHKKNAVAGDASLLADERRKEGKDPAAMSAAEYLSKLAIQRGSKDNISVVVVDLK
Substitution | relative binding score [%]
R132M | 82.7
S80Y | 29
V161W | 32.2
I162C | 43.2
V121A | 30.9
A175Q | 86.6
A30P | 20.4
H16W | -21
R99V | -12.4
E174K | 50.5
T154A | 53.1
R69E | 73.9
H55W | 78.8
S42K | 81.5
D96G | 14.1

Series 5
Target: RNA binding protein fox-1 homolog 2, RRM domain, GST-SBP tag (RBFOX2, Homo sapiens, UniProt O43251-10, residues 100-194)
Method: RNA Bind-n-Seq
Molecule type: RNA
Sample: in vitro
Concentration: 365 nM
Notes: natural RNA segment, single round, ends assumed
Baseline: no-protein control
Direction: higher = stronger binding
Constant ends, left off below: GGGAGUUCUACAGUCCGACGAUC … UGGAAUUCUCGGGUGCCAA
Residues (chain): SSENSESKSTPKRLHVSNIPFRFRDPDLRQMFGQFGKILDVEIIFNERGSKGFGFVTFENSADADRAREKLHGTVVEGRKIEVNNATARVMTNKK
Strand | RBNS enrichment (R)
GAAUCCAGGUUAUAGUGCCUUCGACGUCUCGGUUCCCCGGAAGGAUGCUCCUUCCCUGAAUAUGCAGUAGAGCUGUGCCACAUGCCCUUUGAAGAUCUUCAUGGCUGCUG | 0.243
UAGGAGGGGAUCGGGUUUGGCCCCCAGCCCCGCUCACGCCAGUCCCUCUUCCUCUGCCGGGAGGGUGUUUUCAACUCCAAACCCCAGAGAGGGGUUGUAGAUUGGGUCCA | 0.465
AAAAGGCAAGGGUUGAUCCCCGCAGCCCUUCUCUGAAUUCUCACUGCUGAUAUCUGAAUGAAGCAACAGAAGGCACGCAGUAACGCAGACGGGAACGGAAGCAGUUCCGC | 0.426
UUUGCAGGCUAGACAUAACCCACUGAUGGAAAUGGUGAAGAAUGAGCUUCAUGUAGGUUUAAAAGUGUAUUCUGAGCCUGUAGAUGAUUAAUCAGGUUUUUAUUCAAUCA | 0.799
AUUCUUUAUUAUCUUAGUUUCAUGCUAUGUAUGUACCAUAACCAACCUAUUGCCUAUGAGAAACAUGUAAGAUAAUGUAUUUACAGCCAUUGUUACAAGUUUAUAAUGUA | 0.797
UUGGUCACAUGAGUCUGUCUCCUUACUUUAGUCCCUGGGCAAUCCUUGCUUAAUGCUUUUGUUGACUCAACAAGGGCCCGAGGCCUUAGGUUUUCUAUUAAGGUCUCUGC | 0.213
GGCAUGCCACACCACUGCCCAGCUCGUUUAUAUUCUUAAAAGCAAAAUAUUACAUUUCAUUACUGCUUCAUGAAGACAGAAAGUAAUUGAAACUUAAACAUAUAAAAACA | 0.416
CAUCCCAGGCUUGCUGUGUCUCACUGUCCCCACCCUCCUUCCCUACUUCUUUUUUUGUGUGUCUGGUUUCUCCCUUCCUUUCCUCCCUUUGGGUUUCCAGAGUCGGUGGG | 0.766
UCAUUUAUGCCCACUUUAAAAUGUAGGGAGUCUGUUUCGGCCCCUUUUCUGGAGUAUAUUUGUACCAUAUUGUAACAAAAUGAUCCUGGCCACAAAAUAAAACACACACU | 0.373
UGAAAAGGUGAAUACUCCAACUACCACAGUCUAUAGGUGUGGCCCUUUGAUAGAUCUCUGCCGGGGUCCUCAUGUUAGACACACGGGCAAAAUUAAGGCUUUAAAAAUAC | 0.428
GUUCCUGCUGGGUGUGGUGGCGCAAGCCUUUAAUCCCUGCACUUGGGAGGCAGCUGCAGAUGGGAUUUCUGAGUUAAGGACAAGGUCUACAGAGUGAGUUCCAGGACAGC | 0.474
UAUUCUUUAUAUAAGGUGGGCAUCAAGCAACCAGAAGUGCAAACUUCCCUCCCUUUACUUCUGUUGCCUUGUGUAUAAAACUGCCCCCAGCUUGCCUAGAGACGUUGCCU | 0.809
